# Experimental data gathered from unrelated publications.
# A part holds a random share of what one study measured. Positions count from the first letter of the parent shown.

# Series 1
# Target: CCNE1, cyclin fold, Cln2 fusion (human)
# Technique: yeast growth competition, sequencing
# Medium: yeast
# Setting: strong parent motif
# Reference: not given
# Reading: higher = stronger binding
# Parent: viral docking peptide; KKVKRRLFETREL
Variant,normalised enrichment score
KKVKARAFETREL [R5A L7A],0.133
AKVKRRLFETREL [K1A],6.07
KKVKARLFETREL [R5A],1.93
KKVKRALFETREL [R6A],2.13
KKVKKRLFETREL [R5K],1.1
KKVKRRAFETREL [L7A],0.925
KKVKKRLLETREL [R5K F8L],0.232
KKVKRRLFETAEL [R11A],6.51
KKVKRRLFETRAL [E12A],2.75
KKAKRRLFETREL [V3A],3.92

# Series 2
# Target: Max-binding protein MNT, bHLH-zipper, MAX partner unstated (MNT, Homo sapiens, UniProt Q99583, residues 220-300)
# Technique: protein-binding microarray
# Form: double-stranded DNA, one strand shown
# Medium: in vitro
# Tested at: not given
# Setting: k-mer, scored over probes, only values ≥0.25
# Reading: higher = stronger binding
# Residues (chain): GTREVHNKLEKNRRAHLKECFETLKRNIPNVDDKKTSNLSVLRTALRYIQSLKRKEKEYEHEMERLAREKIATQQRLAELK
Oligonucleotide,E-score
CATGTGAG,0.444
CGATCACG,0.277
CACGCACA,0.378
GTGTGGGA,0.314
ACACGCGT,0.46
GCTTAACA,0.3
TAGCCCCA,0.307
ACTCGTGC,0.403

# Series 3
# Target: Fragile X messenger ribonucleoprotein 1, C-terminal low-complexity region (Fmr1, Mus musculus, UniProt P35922)
# Technique: RNA Bind-n-Seq
# Form: RNA
# Medium: in vitro
# Tested at: 200 nM
# Setting: whole 134-nt RNA, ends assumed
# With: 150 mM KCl
# Reference: input library
# Reading: higher = stronger binding
# Shared flanks, not repeated: GGGAGUUCUACAGUCCGACGAUC … UGGAAUUCUCGGGUGUCAAGG
Oligonucleotide,log2 enrichment
AAGUCCUGUGCUACACAUCGUAUGUACCGAAUCGGAAAAAAAGGAAAGGUUUUUGGAAAGUAUUAUGUUACGCCGUUCGGAUCUGCACUU,-1.25
UGAAUCCUUCCUUGAUGAUGAAGAGGUAUGUCAACAAGGGUAAUAAUUUGUUUUCUUCUGAUUACUCUCAUAUUUUUAUUAUCUUUUAUU,-1.05
AGUCCUGUGCUACACAUCGUAUGUACCGAAUCGGAAAAAAAGGAAAGGUUUUUUUGGAAAGUAUUAUGUUACGCCGUUCGGAUCUGCACU,-1.44
GCAGGAAGUAAAAACAAAUGGAAAUGCUUCGGAUAGUGGCAGGUGUGGGGGUUGCUAAGGAAAGGGUGGGAUGGGAGUGGGUAAAGAGUU,0.322
GCAGGAAGUAAUAACAAAUGGAAAUGCUUCGGAUAGUGGCAGGGGUGGGGGUUGCUAAGGAAAGGGUGGGAUGGGAGUGGGUAAAGAGUU,0.42
AGUCCUGUGCUACACAUCGUAUGUACCGAAUCGGGGUUUUGGUUUUGGGGUUUUGGGGAAAGUAUUAUGUUACGCCGUUCGGAUCUGCAC,0.45
UCCUGUGCUACACAUCGUAUGUACCGAAUCGGGUUUUUGGGAAAAAAAGGGUUUUUGGGAAAGUAUUAUGUUACGCCGUUCGGAUCUGCA,-0.282
CCUCAAGUCCUGUGCUACACAUCGUAUGUACCGAAUCGGGGAGGGAGGGAGGAAAGUAUUAUGUUACGCCGUUCGGAUCUGCACUUCCAG,1.2

# Further values, each from its own experiment
SMILES,organism,assay,test system,setting,scale,endpoint,value
OC1CCCCC1N1CCC(c2ccccc2)CC1 (stereo not drawn),Plasmodium berghei,inhibitor,"Huh-7, GFP-expressing, liver stage","10 µM, 24 h",reference: untreated control,infection rate,90.9%

# Some of these lines once more (series 2):
Oligonucleotide,E-score
CGATCACG,0.277
ACACGCGT,0.46
TAGCCCCA,0.307
